Measured values from different studies.
Numbers after ± are the reported error.

With `Cc1nc2cccc(OCC(C)(C)C(=O)NC(C)C)c2c(N)c1C(=O)O` the Cmax was 92 ng/mL (female Sprague-Dawley rat, plasma; dietary, 100 mg/kg/day, day 90).
For `C=CC(N)CCC(=O)O` (centres unmarked), the Cmax was 984 ± 45 ng/mL (male Sprague-Dawley rat, plasma; oral, 1.0 mg/kg, formulation 3, with: low-fat infant formula 1500 mg/kg).
With `Cc1cc(Nc2cc3ncccc3c(N[C@@H]3C[C@H]4CC[C@@H](C3)N4CCC#N)n2)n[nH]1` the Cmax was 6 ng/mL (pregnant rat, maternal plasma; oral, 100 mg/kg/day, gestation day 17).
For `CS(=O)(=O)c1ccc(-c2cnc(N)c(-c3ccc(C(F)(F)F)nc3)c2)cc1`, the Cmax was 2160 ng/mL (pregnant female Sprague-Dawley rat, plasma; oral, 10 mg/kg/day, gestation day 6).
`CCN1CCN(c2ccc(Nc3cc(N(C)C(=O)Nc4c(Cl)c(OC)cc(OC)c4Cl)ncn3)cc2)CC1` gave a Cmax of 18.1 ng/mL (LC-MS/MS; juvenile female Crl:WI(Han) rats, plasma; oral gavage, 0.3 mg/kg/day, postnatal day 17).
`C=CC(=O)Nc1cc(Nc2nccc(-c3cn(C)c4ccccc34)n2)c(OC)cc1N(C)CCN(C)C` has a Cmax of 88.3 ± 23.6 ng/mL (Sprague-Dawley rat, male, plasma; oral, 10 mg/kg, with: avitinib 30 mg/kg single dose on day 7).
For `O=C(O)C[C@H](O)C[C@H](O)/C=C/c1c(C2CC2)nc2ccccc2c1-c1ccc(F)cc1`, the Cmax was 4.2 µM (male Sprague Dawley rat, NASH, plasma; oral, 2.5 mg/kg, geometric mean, with: silymarin 500 mg/kg oral).
For `CC(C)=CCC[C@](C)(O[C@@H]1O[C@H](CO)[C@@H](O)[C@H](O)[C@H]1O)[C@H]1CC[C@]2(C)[C@@H]1[C@H](O)C[C@@H]1[C@@]3(C)CC[C@H](O[C@@H]4O[C@H](CO)[C@@H](O)[C@H](O)[C@H]4O[C@@H]4O[C@H](CO)[C@@H](O)[C@H](O)[C@H]4O)C(C)(C)[C@@H]3CC[C@]12C`, the Cmax was 982 ± 456 ng/mL (Sprague-Dawley rat, plasma; oral, 2000 mg/kg ginseng extract, diet with NUTRIOSE 2.5% for 2 weeks).

A few entries again:
`CCN1CCN(c2ccc(Nc3cc(N(C)C(=O)Nc4c(Cl)c(OC)cc(OC)c4Cl)ncn3)cc2)CC1` gave a Cmax of 18.1 ng/mL (LC-MS/MS; juvenile female Crl:WI(Han) rats, plasma; oral gavage, 0.3 mg/kg/day, postnatal day 17).
